Published values of several laboratories.
Each numbered part is a random draw from the data of one study; scales do not carry over between parts. Positions count from the first letter of the parent shown.

Study 1 — method: protein binding microarray; form: double-stranded DNA, one strand shown; sample: in vitro; tested at: not given; relative to: not given; direction: higher = stronger binding
Target: Histone acetyltransferase KAT6A, winged helix 2, GST fusion (KAT6A, Homo sapiens, UniProt Q92794, residues 85-181)
Notes: 8-mer, flanks averaged, mean of 2 arrays, mostly near background
Target sequence (chain): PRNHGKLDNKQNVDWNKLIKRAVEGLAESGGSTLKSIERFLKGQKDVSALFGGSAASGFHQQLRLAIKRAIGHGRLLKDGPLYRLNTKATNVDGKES
Oligonucleotide	E-score
GAGAGCGA	0.0839
ATCAAGCG	0.0196
AGAGACGA	-0.0306
ACAAATCT	0.0529
CCATTTTA	-0.017
CGCCCTTC	0.139
CCGTGTCC	0.211
GCCGGGTA	0.163
CGGCGCAG	0.0987
ACTGCCCA	-0.248
AGCAGGGC	0.0829

Study 2 — method: RNA Bind-n-Seq; form: RNA; sample: in vitro; tested at: 1 µM; notes: whole 134-nt RNA, ends assumed; together with: 150 mM KCl; relative to: input library; direction: higher = stronger binding
Target: Ras GTPase-activating protein-binding protein 1, C-terminal RGG region (G3BP1, Homo sapiens, UniProt Q13283)
Chain of UniProt Q13283 (whole entry, looked up): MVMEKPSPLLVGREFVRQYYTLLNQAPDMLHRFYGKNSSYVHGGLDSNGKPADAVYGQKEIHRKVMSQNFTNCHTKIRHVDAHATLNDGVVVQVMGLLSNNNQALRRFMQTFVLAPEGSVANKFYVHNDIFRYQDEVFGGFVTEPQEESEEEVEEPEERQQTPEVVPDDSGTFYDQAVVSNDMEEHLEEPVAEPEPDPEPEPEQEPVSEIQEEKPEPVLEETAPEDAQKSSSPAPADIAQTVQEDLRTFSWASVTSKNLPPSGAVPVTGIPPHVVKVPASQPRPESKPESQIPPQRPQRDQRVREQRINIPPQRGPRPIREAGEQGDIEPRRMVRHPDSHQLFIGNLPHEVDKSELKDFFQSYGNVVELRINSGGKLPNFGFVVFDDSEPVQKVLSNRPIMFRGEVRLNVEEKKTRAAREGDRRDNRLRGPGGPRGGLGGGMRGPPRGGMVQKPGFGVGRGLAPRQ
All sequences stand within: GGGAGUUCUACAGUCCGACGAUC … UGGAAUUCUCGGGUGUCAAGG
Oligonucleotide	log2 enrichment
AGUCCUGUGCUACACAUCGUAUGUACCGAAUCGGUUUUUGGAAAAAAAGGUUUUUGGAAAGUAUUAUGUUACGCCGUUCGGAUCUGCACU	-2.39
GCAGGAAGUAAAAACAAAUGGAAAUGCUUCGGAUAGUGGAAGGGGUGGGGGUUGCUAAGGAAAGGGUGGGAUGGGAGUGGGUAAAGAGUU	0.766
GCAGGAAGUAAAAACAAAUGGAAAUGCUUCGGAUAGUGGCAGGGGUGGGGGUUGCUAAGGAAAGGGUGGGAUGGGAGUGGGUUAAGAGUU	-0.114
AGUCCUGUGCUACACAUCGUAUGUACCGAAUCGGGGAAAGGGGAAAGGGGUUUGGGGAAAGUAUUAUGUUACGCCGUUCGGAUCUGCACU	3.84
GUCCUGUGCUACACAUCGUAUGUACCGAAUCGGGUGGGAAAAAAAGGGAAAAAAAGGGAAAGUAUUAUGUUACGCCGUUCGGAUCUGCAC	-0.0403
UCCUGUGCUACACAUCGUAUGUACCGAAUCGGGGAGGGGUUUUUGGGGAAAAAAAGGGGAAAGUAUUAUGUUACGCCGUUCGGAUCUGCA	1.03
AGUCCUGUGCUACACAUCGUAUGUACCGAAUCGGGGUGGGGAAAGGGGUUUUUGGGGAAAGUAUUAUGUUACGCCGUUCGGAUCUGCACU	2.33
UCAAGUCCUGUGCUACACAUCGUAUGUACCGAAUCGGAAAGGAAAGGAAAGGGGAAAGUAUUAUGUUACGCCGUUCGGAUCUGCACUUCC	-1.37
CACAGACAACACGCACCCACACAGACACAUAGGGAAGGGGUUGGGAUGGGGACAGGGUGCACAGCAGGGCGGGGUAGGACCCCAGCCCCU	0.182

Study 3 — target: CCND2, cyclin fold, Cln2 fusion (human); method: yeast growth competition, sequencing; sample: yeast; notes: weak parent motif; relative to: not given; direction: higher = stronger binding
Parent: RBL2 docking peptide (human); STTRRRLFVENDS; partner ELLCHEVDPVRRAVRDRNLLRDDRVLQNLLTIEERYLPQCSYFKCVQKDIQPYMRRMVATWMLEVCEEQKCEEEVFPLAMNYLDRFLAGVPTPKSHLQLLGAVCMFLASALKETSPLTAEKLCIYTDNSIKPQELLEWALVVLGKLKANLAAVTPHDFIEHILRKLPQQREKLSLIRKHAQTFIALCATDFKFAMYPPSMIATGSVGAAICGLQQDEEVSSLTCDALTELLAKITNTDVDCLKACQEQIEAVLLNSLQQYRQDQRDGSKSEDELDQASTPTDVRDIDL
Variant	normalised enrichment score
STTRRRLFYENDS [V9Y]	0.258
ETTRRRLFVENDS [S1E]	0.0597
STTRRDLFVENDS [R6D]	-0.0241
STTRRRLFVEYDS [N11Y]	0.356
STTRRRLFVNNDS [E10N]	-0.114
STTRRRLMVENDS [F8M]	0.000636
STTRRLLFVENDS [R6L]	0.765

Further values, each from its own experiment
Substance	target	assay	system	setting	scale	measurement	value
PhoQ, residues 284 288 289 292 302 303 NLGVHL	PhoP, residues 12 14 15 18 19 QQAYL (Escherichia coli, UniProt P23836)	Sort-seq, refers to: YFP reporter	E. coli	PhoQ-PhoP variant library, together with: 10 µM Mg2+	relative to: high Mg2+ state, higher = stronger signaling	fold induction	7.18
